{"data": "Assay results pooled from the literature", "note": "Each line is one published result; not all experiments were run side by side. pIC50: −log10 of the molar value."}
{"SMILES": "Cn1cnc(Cn2c(=O)[nH]/c(=N\\c3cc4cn(C)nc4cc3Cl)n(Cc3cc(F)c(F)cc3F)c2=O)n1", "target or system": "Severe acute respiratory syndrome coronavirus 2", "assay": "viral replication", "test system": "Vero C1008", "conditions": "12.5 µM", "measurement": "inhibition", "value": "100%"}
{"SMILES": "O=C(Nc1ccccc1F)c1cc2c(=O)n3ccccc3nc2n1Cc1ccccc1", "target or system": "Severe acute respiratory syndrome coronavirus 2", "assay": "viral replication, inhibitor, qPCR", "test system": "Vero C1008", "measurement": "EC90", "value": "3.6 µM"}
{"SMILES": "CC(C)C(=O)OC[C@@]1(F)O[C@@H](n2cnc(-c3cnc[nH]c3=O)c2)[C@H](OC(=O)C(C)C)[C@@H]1OC(=O)C(C)C", "target or system": "Severe acute respiratory syndrome coronavirus 2", "assay": "viral replication, inhibitor", "test system": "A549-ACE2", "conditions": "24 h", "measurement": "pIC50", "value": "< 4.00"}
{"SMILES": "C=C[C@@](C)(/C=C/c1ccc(O)cc1)CCC=C(C)C", "target or system": "Severe acute respiratory syndrome coronavirus 2", "assay": "cytopathic effect, inhibitor", "test system": "Vero C1008", "conditions": "3.125 µM", "measurement": "inhibition", "value": "0%"}
{"SMILES": "COc1nc(N)ncc1-c1cn([C@@H]2O[C@](F)(CO[P@@](=O)(N[C@@H](C)C(=O)OC(C)C)Oc3ccccc3)[C@@H](O)[C@H]2O)cn1", "target or system": "Severe acute respiratory syndrome coronavirus 2", "assay": "viral replication, inhibitor", "test system": "A549-ACE2", "conditions": "24 h", "measurement": "pIC50", "value": "< 4.00"}
{"SMILES": "CCC(CC)COC(=O)[C@H](C)N[P@](=O)(OC[C@H]1O[C@@](C#N)(c2ccc3c(N)ncnn23)[C@H](O)[C@@H]1O)Oc1ccccc1", "target or system": "Severe acute respiratory syndrome coronavirus 2", "assay": "viral replication, inhibitor, qPCR", "test system": "Vero C1008", "measurement": "EC90", "value": "0.0835 µM"}
{"SMILES": "O=C(O[C@@H]1Cc2c(O)cc(O)cc2O[C@@H]1c1cc(O)c(O)c(O)c1)c1cc(O)c(O)c(O)c1", "target or system": "Severe acute respiratory syndrome coronavirus 2", "assay": "cytopathic effect", "test system": "Vero C1008", "conditions": "12.5 µM", "measurement": "inhibition", "value": "0%"}
{"SMILES": "COc1ncc(-c2cn([C@@H]3O[C@](F)(CO[P@@](=O)(N[C@@H](C)C(=O)OC(C)C)Oc4ccccc4)[C@@H](OC(=O)C(C)C)[C@H]3OC(=O)C(C)C)cn2)c(OC)n1", "target or system": "Severe acute respiratory syndrome coronavirus 2", "assay": "viral replication, inhibitor", "test system": "A549-ACE2", "conditions": "24 h", "measurement": "pIC50", "value": "< 4.00"}
{"SMILES": "CC(=O)c1cccc(NC(=O)c2cc3c(=O)n4ccccc4nc3n2C)c1", "target or system": "Severe acute respiratory syndrome coronavirus 2", "assay": "viral replication, inhibitor, qPCR", "test system": "Vero C1008", "measurement": "EC90", "value": "2.5 µM"}
{"SMILES": "COc1ncc(-c2cn([C@@H]3O[C@](F)(CO[P@@](=O)(N[C@@H](C)C(=O)OC(C)C)Oc4ccccc4)[C@@H](O)[C@H]3O)cn2)c(OC)n1", "target or system": "Severe acute respiratory syndrome coronavirus 2", "assay": "viral replication, inhibitor", "test system": "A549-ACE2", "conditions": "24 h", "measurement": "pIC50", "value": "< 4.00"}
{"SMILES": "CC(C)=CCc1c(O)ccc(C(=O)/C=C/c2ccc(O)cc2)c1O", "target or system": "Severe acute respiratory syndrome coronavirus 2", "assay": "cytopathic effect, inhibitor", "test system": "Vero C1008", "conditions": "6.25 µM", "measurement": "inhibition", "value": "0%"}
{"SMILES": "Nc1ncnc2c([C@@H]3N[C@H](CO)[C@@H](O)[C@H]3O)c[nH]c12", "target or system": "Zaire ebolavirus", "assay": "antibody staining", "test system": "HeLa, Kikwit", "conditions": "200 µM", "measurement": "antigen-positive cells", "value": "0.06%"}
{"SMILES": "CC[C@H](C)[C@H](NC(=O)[C@H](CC(C)C)NC(=O)[C@H](Cc1c[nH]c2ccccc12)NC(=O)[C@H](CCC(N)=O)NC(=O)[C@@H](NC(=O)[C@H](Cc1ccccc1)NC(=O)[C@H](C)NC(=O)[C@H](CCCCNC(=O)COCCOCCNC(=O)COCCOCCNC(=O)CC[C@H](NC(=O)CCCCCCCCCCCCCCCCCCC(=O)O)C(=O)O)NC(=O)[C@H](CCC(N)=O)NC(=O)[C@H](C)NC(=O)[C@@H](NC(=O)[C@H](CCCCN)NC(=O)[C@H](CC(=O)O)NC(=O)[C@H](CC(C)C)NC(=O)C(C)(C)NC(=O)[C@@H](NC(=O)[C@H](CO)NC(=O)[C@H](Cc1ccc(O)cc1)NC(=O)[C@H](CC(=O)O)NC(=O)[C@H](CO)NC(=O)[C@@H](NC(=O)[C@H](Cc1ccccc1)NC(=O)[C@@H](NC(=O)CNC(=O)[C@H](CCC(=O)O)NC(=O)C(C)(C)NC(=O)[C@@H](N)Cc1ccc(O)cc1)[C@@H](C)O)[C@@H](C)O)[C@@H](C)CC)[C@@H](C)CC)C(C)C)C(=O)N[C@@H](C)C(=O)NCC(=O)NCC(=O)N1CCC[C@H]1C(=O)N[C@@H](CO)C(=O)N[C@@H](CO)C(=O)NCC(=O)N[C@@H](C)C(=O)N1CCC[C@H]1C(=O)N1CCC[C@H]1C(=O)N1CCC[C@H]1C(=O)N[C@@H](CO)C(N)=O", "test system": "healthy human", "conditions": "5.0 mg, single ascending dose", "measurement": "injection site reaction", "value": "0%"}
{"SMILES": "Cc1ccc(NC(=O)c2cc3c(=O)n4cccc(C)c4nc3n2C)cc1Cl", "target or system": "Severe acute respiratory syndrome coronavirus 2", "assay": "viral replication, inhibitor, qPCR", "test system": "Vero C1008", "measurement": "EC90", "value": "2.6 µM"}
{"SMILES": "O=C(/C=C/c1ccc(O)c(O)c1/C=C/c1ccc(O)c(O)c1)O[C@H](Cc1ccc(O)c(O)c1)C(=O)O", "target or system": "Severe acute respiratory syndrome coronavirus 2", "assay": "cytopathic effect, inhibitor", "test system": "Vero C1008", "conditions": "50 µM", "measurement": "inhibition", "value": "0%"}
{"SMILES": "COc1ncncc1-c1cn([C@@H]2O[C@](F)(COC(=O)C(C)C)[C@@H](OC(=O)C(C)C)[C@H]2OC(=O)C(C)C)cn1", "target or system": "Severe acute respiratory syndrome coronavirus 2", "assay": "viral replication, inhibitor", "test system": "A549-ACE2", "conditions": "24 h", "measurement": "pIC50", "value": 4.40}
{"SMILES": "CCc1ccc(NC(=O)c2cc3c(=O)n4ccccc4nc3n2C)cc1", "target or system": "Severe acute respiratory syndrome coronavirus 2", "assay": "viral replication, inhibitor, qPCR", "test system": "Vero C1008", "measurement": "EC90", "value": "3.44 µM"}
